Assay results from different studies.
Protocols differ between the studies behind these lines.
Organism: Enterococcus faecalis

CCCCCCCCCCn1cc[n+](CCCCCCCCCCOc2cc(OCCCCCCCCCC[n+]3ccn(CCCCCCCCCC)c3)cc(OCCCCCCCCCC[n+]3ccn(CCCCCCCCCC)c3)c2)c1.[Br-].[Br-].[Br-] — MIC (OG1RF): 32 µM
CCNC(=S)NN=Cc1c2ccccc2cc2ccccc12.Cc1ccc(C(C)C)cc1.[Cl-].[Cl-].[Ru+2] — MIC (24 h, 37.0 °C): 20 µM
CN[C@H](CC(C)C)C(=O)N[C@H]1C(=O)N[C@@H](CC(N)=O)C(=O)N[C@H]2C(=O)N[C@H]3C(=O)N[C@H](C(=O)N[C@H](C(=O)O)c4cc(O)cc(O)c4-c4cc3ccc4O)[C@H](O)c3ccc(c(Cl)c3)Oc3cc2cc(c3O[C@@H]2O[C@H](CO)[C@@H](O)[C@H](O)[C@H]2O[C@H]2C[C@](C)(N)[C@H](O)[C@H](C)O2)Oc2ccc(cc2Cl)[C@H]1O — MIC (microbial growth, broth dilution; 29212): < 1 µM
CCCC/C=C/C(=O)N[C@@H](Cc1cc(F)cc(F)c1)C(=O)N[C@H]1COC(=O)[C@@H]2CCCN2C(=O)[C@H](C)NC(=O)[C@@H]2C[C@@H](C)CCN2C(=O)[C@@H]2CCCN2C1=O — MIC (microbial growth, broth dilution): 0.003 mg/L
CNC(C)C1CCC(N)C(OC2C(N)CC(N)C(OC3OCC(C)(O)C(NC)C3O)C2O)O1 (stereo not shown) — MIC (microbial growth, broth dilution; 29212): 1 µM
CCCCCCCC[N+](C)(C)CCCCCCOc1cc(OCCCCCC[N+](C)(C)CCCCCCCC)cc(OCCCCCC[N+](C)(C)CCCCCCCC)c1.[Br-].[Br-].[Br-] — MIC (OG1RF): 1 µM
CCCC/C=C/C(=O)N[C@@H](Cc1cc(F)cc(F)c1)C(=O)N[C@H]1COC(=O)[C@@H]2CCCN2C(=O)[C@H](C)NC(=O)[C@@H]2CCCCN2C(=O)[C@@H]2CCCN2C1=O — MIC (microbial growth, broth dilution): 0.015 mg/L
CCCCCCCCCCn1cc[n+](CCCCCCCCOc2cc(OCCCCCCCC[n+]3ccn(CCCCCCCCCC)c3)cc(OCCCCCCCC[n+]3ccn(CCCCCCCCCC)c3)c2)c1.[Br-].[Br-].[Br-] — MIC (OG1RF): 8 µM
CN[C@H](CC(C)C)C(=O)N[C@H]1C(=O)N[C@@H](CC(N)=O)C(=O)N[C@H]2C(=O)N[C@H]3C(=O)N[C@H](C(=O)N[C@H](C(=O)O)c4cc(O)cc(O)c4-c4cc3ccc4O)[C@H](O)c3ccc(c(Cl)c3)Oc3cc2cc(c3O[C@@H]2O[C@H](CO)[C@@H](O)[C@H](O)[C@H]2O[C@H]2C[C@](C)(NCc3ccc(-c4ccc(Cl)cc4)cc3)[C@H](O)[C@H](C)O2)Oc2ccc(cc2Cl)[C@H]1O — MIC (BM4166, VanA vancomycin-resistant; together with: lipoteichoic acid 100 µg/mL): 10 mg/L
CCCC/C=C/C(=O)N[C@@H](Cc1cc(F)cc(F)c1)C(=O)N[C@H]1COC(=O)[C@@H]2CCCN2C(=O)[C@H](C)NC(=O)[C@@H]2C[C@@H](C(C)C)CCN2C(=O)[C@@H]2CCCN2C1=O — MIC (microbial growth, broth dilution): 0.098 mg/L

Excerpt of the above:
CNC(C)C1CCC(N)C(OC2C(N)CC(N)C(OC3OCC(C)(O)C(NC)C3O)C2O)O1 (stereo not shown) — MIC (microbial growth, broth dilution; 29212): 1 µM
